# Experimental data pooled from the literature.
# Parts stem from different laboratories: compare values within a part only. Positions count from the first letter of the parent shown.

# Study 1 — method: RNA Bind-n-Seq; molecule type: RNA; sample: in vitro; concentration: 200 nM; setting: whole 134-nt RNA, ends assumed; added: 150 mM KCl; baseline: input library; direction: higher = stronger binding
# Target: Ras GTPase-activating protein-binding protein 1, full length (G3BP1, Homo sapiens, UniProt Q13283)
# Chain of UniProt Q13283 (whole entry, looked up): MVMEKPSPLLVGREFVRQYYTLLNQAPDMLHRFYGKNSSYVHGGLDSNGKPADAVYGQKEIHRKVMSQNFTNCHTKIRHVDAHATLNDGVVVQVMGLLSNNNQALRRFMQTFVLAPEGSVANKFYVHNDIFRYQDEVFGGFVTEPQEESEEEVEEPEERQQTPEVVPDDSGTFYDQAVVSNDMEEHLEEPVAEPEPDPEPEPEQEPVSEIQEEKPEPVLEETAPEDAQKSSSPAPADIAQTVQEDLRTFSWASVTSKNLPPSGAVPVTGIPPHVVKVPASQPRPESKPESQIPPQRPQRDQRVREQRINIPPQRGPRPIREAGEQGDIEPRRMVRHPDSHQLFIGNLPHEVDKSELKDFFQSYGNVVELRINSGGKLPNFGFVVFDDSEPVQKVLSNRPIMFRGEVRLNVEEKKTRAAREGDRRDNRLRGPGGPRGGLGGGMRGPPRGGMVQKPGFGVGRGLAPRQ
Sequence,log2 enrichment
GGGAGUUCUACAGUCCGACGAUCGCAGGAAGUAAAAACAAAUGGAAAUGCUUCGGAUAGUGGCAGGGGUGGGGGUUGCUAAGGAAAGGGUAGGAUGGGAGUGGGUAAAGAGUUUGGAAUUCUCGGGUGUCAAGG,1.08
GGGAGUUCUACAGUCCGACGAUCUUGACCGGAGCGGCCGUCACUUUGGUACAAUCCUCAAUUACCUGCGGGAUGGGUCUGUGCCACUGCCGGAGAGUACGAGAGAACUGGGGGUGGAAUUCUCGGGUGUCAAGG,-1.05
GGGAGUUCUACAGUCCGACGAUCCUCAAGUCCUGUGCUACACAUCGUAUGUACCGAAUCGGCCGGGCCGGGGCCGGGAAAGUAUUAUGUUACGCCGUUCGGAUCUGCACUUCCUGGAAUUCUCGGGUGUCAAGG,-0.324
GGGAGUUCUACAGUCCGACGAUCGCAGGAAGUAAAAACAAAUGGAAAUGCUUCGGAUAGUGGCAGGGGUGGGAAAUGCUAAGGAAAGGGUGGGAUGGGAGUGGGUAAAGAGUUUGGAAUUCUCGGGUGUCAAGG,1.16
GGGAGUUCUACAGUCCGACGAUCGCAGGAAGUAAAAACAAAUGGAAAUGCUUCGGAUAGUGGCAGGGGUGGGGGUUGCUAAGGAAAGGGUGGGAUGGGGGUGGGUAAAGAGUUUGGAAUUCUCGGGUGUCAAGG,0.29
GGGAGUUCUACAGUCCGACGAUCUGGCCCUGGUGGCAUGCGGGGAGGAAGUGGUGGCCUCAUGGAUCGUGGUGGUCCCGGUGGAAUGUUCAGAGGUGGCCGUGGUGGAGACAGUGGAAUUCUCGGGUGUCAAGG,0.345
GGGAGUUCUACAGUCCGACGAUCAAGUCCUGUGCUACACAUCGUAUGUACCGAAUCGGGUUUGGGAAAAAAAGGGUGGGAAAGUAUUAUGUUACGCCGUUCGGAUCUGCACUUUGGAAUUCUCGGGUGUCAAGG,0.244
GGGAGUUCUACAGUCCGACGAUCAAGUCCUGUGCUACACAUCGUAUGUACCGAAUCGGUUUUUUUGGAGGAAAAAAAGGAAAGUAUUAUGUUACGCCGUUCGGAUCUGCACUUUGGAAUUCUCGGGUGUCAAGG,-0.928
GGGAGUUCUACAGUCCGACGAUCCAAGUCCUGUGCUACACAUCGUAUGUACCGAAUCGGGGUGGGGAGGGGUUUGGGGAAAGUAUUAUGUUACGCCGUUCGGAUCUGCACUUCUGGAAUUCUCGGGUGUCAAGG,1.2
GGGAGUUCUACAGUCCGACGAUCUGGCCCUGGUGGCAUGCGGGGAGGAAGAGGUGGCCUCAUGGCUCGUGGUGGUCCCGGUGGAAUGUUCAGAGGUGGCCGUGGUGGAGACAGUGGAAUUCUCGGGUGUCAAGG,0.145
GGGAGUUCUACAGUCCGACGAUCUCCUGUGCUACACAUCGUAUGUACCGAAUCGGGUUUGGGUUUUUUUGGGUUUUUUUGGGAAAGUAUUAUGUUACGCCGUUCGGAUCUGCAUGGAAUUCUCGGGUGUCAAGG,-0.116
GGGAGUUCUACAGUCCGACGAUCCAAGUCCUGUGCUACACAUCGUAUGUACCGAAUCGGGGUUUGGGGUUUGGGUUUGGAAAGUAUUAUGUUACGCCGUUCGGAUCUGCACUUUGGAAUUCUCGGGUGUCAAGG,-0.187
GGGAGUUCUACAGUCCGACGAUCUGGGAGGUGGAUUUUGUUUAUUUUUUUAGCUCAUUUCCAGGGGUGGGAAUUUUUUUUUAAUAUGUGUGAUGAAUAAAGUUGUUUUUGAAAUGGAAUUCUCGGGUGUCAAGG,0.422
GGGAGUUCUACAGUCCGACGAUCAGUCCUGUGCUACACAUCGUAUGUACCGAAUCGGGGAAAAGGAAAAGGGGAAAAGGGAAAGUAUUAUGUUACGCCGUUCGGAUCUGCACUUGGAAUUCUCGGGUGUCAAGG,-0.244

# Study 2 — method: universal PBM; molecule type: double-stranded DNA, one strand shown; sample: in vitro; concentration: not given; direction: higher = stronger binding
# Target: Sal-like protein 4, full length isoform B (SALL4, Homo sapiens, UniProt Q9UJQ4-2, residues 1-616)
# Setting: 8-mer, flanks averaged, mean of replicates
# Construct (chain): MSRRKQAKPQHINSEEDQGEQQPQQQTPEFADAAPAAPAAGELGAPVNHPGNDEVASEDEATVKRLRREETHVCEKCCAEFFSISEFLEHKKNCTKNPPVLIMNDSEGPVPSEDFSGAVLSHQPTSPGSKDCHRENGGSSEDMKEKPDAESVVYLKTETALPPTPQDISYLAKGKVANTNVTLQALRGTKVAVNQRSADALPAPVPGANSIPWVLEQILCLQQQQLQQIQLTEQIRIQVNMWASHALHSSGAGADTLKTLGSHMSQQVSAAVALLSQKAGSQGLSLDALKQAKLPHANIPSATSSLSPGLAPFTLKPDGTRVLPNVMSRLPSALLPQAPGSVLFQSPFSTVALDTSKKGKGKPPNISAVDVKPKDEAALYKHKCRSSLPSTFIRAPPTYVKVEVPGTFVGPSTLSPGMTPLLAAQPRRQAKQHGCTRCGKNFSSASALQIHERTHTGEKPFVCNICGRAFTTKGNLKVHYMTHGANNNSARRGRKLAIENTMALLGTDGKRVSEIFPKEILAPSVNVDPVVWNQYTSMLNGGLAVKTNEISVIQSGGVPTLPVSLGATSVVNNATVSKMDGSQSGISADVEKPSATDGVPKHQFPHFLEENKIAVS
Sequence,E-score
GGAGTCGA,-0.249
ACTTTGAT,-0.056
AAGCTCTC,-0.187
ATGGATAA,0.264
TAATGCCA,0.211
ACTAAATG,0.203
GGTTAAAA,0.106
AGTAGATA,0.318
AATACCAC,0.154
GCAGGGAC,-0.276
ATTTTACC,0.325
CTCCCTTA,-0.0649
AAACCAAA,0.119
AAAGGATT,0.0994
GTACGAGA,0.083
ATGCTTCC,0.0194
AATTGTCG,-0.0341
TAGTTAGA,0.121
ACGAAGCG,-0.202
AGTCAACG,-0.0863
GAGGAGGC,-0.349
AGGGAACG,-0.178
CACTTCAC,-0.0433
TAAAGTGA,0.245

# Study 3 — target: CCNA1, cyclin fold, Cln2 fusion (human); method: yeast growth competition, sequencing; sample: yeast; setting: weak parent motif; baseline: not given; direction: higher = stronger binding
# Starting sequence: SLBP docking peptide (human); ARYKRKLLINDFG
Variant,normalised enrichment score
ARYKRKLLINDTG [F12T],-0.0923
AGYKRKLLINDFG [R2G],0.435
ARRKRKLLINDFG [Y3R],0.0269
ARYKRKLLIHDFG [N10H],0.289
ARYKHKLLINDFG [R5H],0.57
ARYKRSLLINDFG [K6S],-0.0334
ARYKRKLLDNDFG [I9D],-0.000246
GRYKRKLLINDFG [A1G],0.425
ARYKRKILINDFG [L7I],-0.0513
ARYKRKLLINKFG [D11K],0.286
ARKKRKLLINDFG [Y3K],-0.111
RRYKRKLLINDFG [A1R],0.208
ARYKRKLNINDFG [L8N],0.48
ARYKVKLLINDFG [R5V],0.442
ASYKRKLLINDFG [R2S],-0.000287
VRYKRKLLINDFG [A1V],0.584

# Study 4 — method: DHFR PCA, deep sequencing; sample: yeast; added: (+)-ABA 200 µM; baseline: wild-type fitted maximum; direction: higher = stronger binding
# Target: ABI1, truncated, D143A, DHFR fusion (Arabidopsis thaliana)
# Setting: methotrexate growth selection, single substitutions
# Starting sequence: PYL1, truncated, DHFR fusion (Arabidopsis thaliana); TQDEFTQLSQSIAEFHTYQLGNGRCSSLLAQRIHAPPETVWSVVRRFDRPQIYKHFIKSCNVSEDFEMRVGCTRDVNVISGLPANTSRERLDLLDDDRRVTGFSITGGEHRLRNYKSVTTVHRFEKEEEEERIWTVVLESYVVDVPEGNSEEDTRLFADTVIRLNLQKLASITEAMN; partner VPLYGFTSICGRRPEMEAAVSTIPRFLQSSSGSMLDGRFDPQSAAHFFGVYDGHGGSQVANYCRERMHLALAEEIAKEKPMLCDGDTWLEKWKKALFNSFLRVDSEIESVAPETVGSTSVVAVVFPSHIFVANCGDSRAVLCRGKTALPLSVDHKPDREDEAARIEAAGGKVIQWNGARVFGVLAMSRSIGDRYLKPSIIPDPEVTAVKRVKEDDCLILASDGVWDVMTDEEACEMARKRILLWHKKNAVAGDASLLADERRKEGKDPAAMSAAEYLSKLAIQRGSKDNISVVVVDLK
Variant,relative binding score [%]
L112V,38.5
A30L,100
G102D,0.554
D75E,103
V62Y,81.2
A175D,98.7
T120E,23
P83M,18.6
V70M,82.6
V142Q,94.4
E130H,107
V161K,-10.3
P37C,85.1
T39F,90.8
L82F,67
Y141C,18.1
D3W,96.4
T120A,15.2
R155P,2.07
D65V,88.6
G21I,97.1
F103Q,-0.691
L164E,74.2
G108H,29.1
F66C,100

# Study 5 — method: protein binding microarray; molecule type: double-stranded DNA, one strand shown; sample: in vitro; concentration: not given; baseline: not given; direction: higher = stronger binding
# Target: Histone acetyltransferase KAT6A, both winged helices, GST fusion (KAT6A, Homo sapiens, UniProt Q92794, residues 1-181)
# Setting: 8-mer, flanks averaged, mean of 2 arrays, mostly near background
# Target sequence (chain): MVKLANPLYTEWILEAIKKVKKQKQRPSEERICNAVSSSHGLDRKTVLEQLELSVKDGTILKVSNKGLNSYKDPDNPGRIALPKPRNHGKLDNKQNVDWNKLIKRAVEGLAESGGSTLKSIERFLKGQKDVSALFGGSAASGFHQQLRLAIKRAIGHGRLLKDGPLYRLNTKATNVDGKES
Sequence,E-score
AAAGCAAC,-0.0298
AGATCGGG,0.0668
CCGGGGAC,0.0659
GTTCCATA,-0.0475
CTACTGTC,-0.0896
GCCGGAAA,0.222
ATATCCCC,-0.1
CCAGCTAG,-0.267
CCCTCATC,-0.114
TAGTTGCA,-0.0872
ATAGGATG,-0.105
ATGTGGCG,0.157
CTGGGCGC,0.0941
ATGTTTAG,-0.0422
GATAGGAC,-0.0798
GGGCAACA,-0.026
CCAACGTC,-0.0424
CACTCTCG,-0.073
CCATCGAG,-0.00137
CACCGGAG,0.114
CCTCACTA,-0.212
CGTTCGTC,0.198
ATATTCGA,0.0264
CAGCCCGG,0.188

# Study 6 — target: FOSL1, bZIP domain (human); method: DHFR protein complementation; sample: yeast; baseline: wild-type JUN-FOS pair; direction: higher = stronger binding
# Setting: single substitutions, most at no-binding floor
# Starting sequence: JUN, bZIP domain (human); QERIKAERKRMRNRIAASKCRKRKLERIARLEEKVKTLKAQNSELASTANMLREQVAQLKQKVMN; partner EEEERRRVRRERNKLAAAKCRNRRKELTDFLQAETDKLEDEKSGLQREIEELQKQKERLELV
Variant,binding fitness
R53C,-1.08 natural log
S47K,-0.133 natural log
L31A,-0.701 natural log
E33W,-0.69 natural log
V56M,-1.18 natural log
V35N,-0.735 natural log
S43C,-0.503 natural log
T37I,-0.385 natural log
S43W,-0.59 natural log
Q41D,-0.743 natural log
L31H,-1.06 natural log
R53W,-1.35 natural log
I28K,-0.737 natural log
L38H,-1.39 natural log
A46F,-0.68 natural log
A46G,-0.887 natural log
A40T,-0.324 natural log
A40L,-0.514 natural log
A49Q,-1.15 natural log
L45G,-1.3 natural log
L59A,-1.16 natural log
V56L,-0.887 natural log
E33K,-0.727 natural log
K34M,-0.521 natural log
N42M,-0.812 natural log
